{"data": "Published values gathered from unrelated publications", "note": "Each line is one published result; not all experiments were run side by side. Several values in a cell are separate wells, animals, samples, runs or records.", "chain of UniProt P33261 (whole entry, looked up)": "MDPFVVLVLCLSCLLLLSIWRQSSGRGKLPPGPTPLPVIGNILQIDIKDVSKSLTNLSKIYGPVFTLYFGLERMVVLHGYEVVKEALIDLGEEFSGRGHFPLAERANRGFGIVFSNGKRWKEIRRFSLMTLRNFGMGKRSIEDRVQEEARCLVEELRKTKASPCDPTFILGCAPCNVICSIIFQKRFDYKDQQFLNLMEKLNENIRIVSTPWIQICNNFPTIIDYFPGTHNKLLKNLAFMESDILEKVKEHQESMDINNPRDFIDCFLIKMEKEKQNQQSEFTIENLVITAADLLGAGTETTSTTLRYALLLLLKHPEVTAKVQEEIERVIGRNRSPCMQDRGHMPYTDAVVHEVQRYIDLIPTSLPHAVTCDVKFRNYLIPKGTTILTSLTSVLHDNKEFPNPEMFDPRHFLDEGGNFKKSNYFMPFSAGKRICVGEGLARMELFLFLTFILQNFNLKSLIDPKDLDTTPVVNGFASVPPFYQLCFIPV", "chain of UniProt Q9Y5S2 (whole entry, looked up)": "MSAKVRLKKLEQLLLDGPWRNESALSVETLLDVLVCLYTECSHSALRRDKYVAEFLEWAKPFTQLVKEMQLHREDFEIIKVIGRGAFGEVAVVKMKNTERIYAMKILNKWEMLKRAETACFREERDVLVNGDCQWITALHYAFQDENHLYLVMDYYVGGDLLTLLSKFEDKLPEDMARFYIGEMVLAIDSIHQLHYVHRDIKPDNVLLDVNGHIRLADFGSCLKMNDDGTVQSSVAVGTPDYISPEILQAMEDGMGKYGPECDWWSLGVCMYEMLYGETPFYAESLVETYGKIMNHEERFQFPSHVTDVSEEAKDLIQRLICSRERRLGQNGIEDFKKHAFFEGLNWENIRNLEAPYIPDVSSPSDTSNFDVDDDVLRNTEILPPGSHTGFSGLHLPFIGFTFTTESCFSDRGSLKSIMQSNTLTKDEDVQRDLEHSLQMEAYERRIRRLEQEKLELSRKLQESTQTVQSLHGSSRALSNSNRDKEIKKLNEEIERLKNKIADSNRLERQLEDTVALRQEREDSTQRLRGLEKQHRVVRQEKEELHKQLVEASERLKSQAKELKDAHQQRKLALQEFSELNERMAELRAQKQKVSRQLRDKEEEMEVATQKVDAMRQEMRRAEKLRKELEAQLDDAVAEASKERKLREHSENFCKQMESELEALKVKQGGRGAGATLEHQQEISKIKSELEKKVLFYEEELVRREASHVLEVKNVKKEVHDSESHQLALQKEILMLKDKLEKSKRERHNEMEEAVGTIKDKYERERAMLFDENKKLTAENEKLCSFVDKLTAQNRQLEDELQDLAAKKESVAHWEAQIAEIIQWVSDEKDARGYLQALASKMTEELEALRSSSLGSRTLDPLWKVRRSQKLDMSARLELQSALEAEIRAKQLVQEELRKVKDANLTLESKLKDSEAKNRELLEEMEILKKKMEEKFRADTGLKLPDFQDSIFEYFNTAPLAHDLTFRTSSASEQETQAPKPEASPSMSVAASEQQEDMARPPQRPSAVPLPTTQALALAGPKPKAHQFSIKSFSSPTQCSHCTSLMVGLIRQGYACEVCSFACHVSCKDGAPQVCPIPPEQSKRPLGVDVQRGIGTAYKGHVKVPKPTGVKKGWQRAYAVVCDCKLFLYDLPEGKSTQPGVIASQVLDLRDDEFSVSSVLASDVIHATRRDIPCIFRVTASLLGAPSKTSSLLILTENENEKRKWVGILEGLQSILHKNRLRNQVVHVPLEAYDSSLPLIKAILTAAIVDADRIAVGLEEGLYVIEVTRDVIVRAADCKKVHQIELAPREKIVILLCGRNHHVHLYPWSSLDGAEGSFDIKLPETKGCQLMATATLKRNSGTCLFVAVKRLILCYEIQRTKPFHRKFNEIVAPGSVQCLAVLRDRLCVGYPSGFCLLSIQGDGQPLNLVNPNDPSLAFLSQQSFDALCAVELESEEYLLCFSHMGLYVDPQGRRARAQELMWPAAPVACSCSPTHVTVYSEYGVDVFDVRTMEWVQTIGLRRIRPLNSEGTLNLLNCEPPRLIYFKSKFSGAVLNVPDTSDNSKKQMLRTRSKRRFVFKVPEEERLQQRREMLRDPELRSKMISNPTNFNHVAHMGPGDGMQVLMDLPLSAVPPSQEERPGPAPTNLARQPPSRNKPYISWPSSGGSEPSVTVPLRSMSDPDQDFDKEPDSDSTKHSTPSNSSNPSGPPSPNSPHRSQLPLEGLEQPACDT"}
{"SMILES": "N#C[C@@H]1CCCN1C(=O)CNC(=O)c1ccnc2ccc(OCCCN3CCN(C(=O)CCc4ccc5c(c4)CN4CCN6CC(=O)[O][68Ga-]([O]C(=O)C4)([O]5)[O]c4ccc(CCC(=O)N5CCN(CCCOc7ccc8nccc(C(=O)NCC(=O)N9CCC[C@H]9C#N)c8c7)CC5)cc4C6)CC3)cc12", "tested on": "U-87 MG tumour model", "test system": "host not given, liver", "conditions": "1 h, tumour-bearing", "endpoint": "tracer uptake", "result": "3.69 %ID/g"}
{"SMILES": "CCN(CC)CC#CCNc1ccnc2cc(Cl)ccc12", "tested on": "Salmonella typhimurium", "assay": "mini-Ames test", "test system": "TA100", "conditions": "500.0 µg/well, without S9", "endpoint": "revertants", "result": "13 revertants/well and 23 revertants/well"}
{"SMILES": "COc1ccc2c(c1)C(C)(C)C(/C=C/C1=C(Oc3ccc(C(=O)NCCCCOc4cc(CN(Cc5ccccn5)Cc5ccccn5)cc(CN(Cc5ccccn5)Cc5ccccn5)c4)cc3)C(=C/C=C3/N(CCCCS(=O)(=O)[O-])c4ccc(OC)cc4C3(C)C)CCC1)=[N+]2CCCCS(=O)(=O)[O-].O=[N+]([O-])[O-].O=[N+]([O-])[O-].[99Tc+].[C-]#[O+].[C-]#[O+].[C-]#[O+].[Zn+2]", "tested on": "Staphylococcus aureus", "test system": "BALB/c mice, bacterial myositis, gall bladder", "conditions": "12 h", "endpoint": "tissue uptake", "result": "62.9 %ID/g"}
{"SMILES": "Nc1ncc(-c2cc(-c3cnn(CC(F)(F)F)c3)ncc2F)nc1C(=O)NC1CNCC(F)C1 (stereo not drawn)", "tested on": "ZAK", "assay": "KINOMEscan", "conditions": "1 µM", "scale": "baseline: DMSO control", "endpoint": "remaining binding", "result": "82%"}
{"SMILES": "Cc1ncsc1-c1ccc(C(C)NC(=O)C2CC(O)CN2C(=O)C(NC(=O)CCCCCCCCCCN2CCCC(Nc3ncc(Cl)c(Nc4ccccc4S(=O)(=O)C(C)C)n3)C2)C(C)(C)C)cc1 (stereo not drawn)", "tested on": "22Rv1", "assay": "RNA-seq, refers to: ZNF525 mRNA", "conditions": "concentration not given", "scale": "baseline: DMSO", "endpoint": "log2 fold change", "result": -1.12}
{"SMILES": "N#C[C@@H]1CC(F)(F)CN1C(=O)CNC(=O)c1ccnc2c(NC(=O)[C@H](CCCCNC(=O)CCOCCOCCOCCOCCOCCOCCNC(=O)CN3CCN(CC(=O)[O-])CCN(CC(=O)[O-])CCN(CC(=O)[O-])CC3)NC(=O)CCCc3ccc(I)cc3)cccc12.[177Lu+3]", "tested on": "U-87 MG tumour model", "test system": "host not given, pancreas", "conditions": "24 h, tumour-bearing", "endpoint": "tracer uptake", "result": "1.28 %ID/g"}
{"SMILES": "CC(C)OCCOCc1ccc(OCC(O)CN(N=O)C(C)C)cc1 (stereo not drawn)", "tested on": "Salmonella typhimurium", "assay": "Ames test", "test system": "TA1535", "conditions": "5 µg/plate, 30 % hamster S9", "scale": "baseline: solvent control", "endpoint": "revertant fold increase", "result": "1 fold"}
{"SMILES": "COc1cccc(OC)c1-c1cc(C(=O)NC2(C(=O)O)C3CC4CC(C3)CC2C4)nn1-c1ccc(C(=O)NCCNC(=O)[C@H](CCCCNC(=O)[C@H](CC(C)C)NC(=O)C2OC2C(=O)O)NC(=O)CN2CCN(CC(=O)[O-])CCN(CC(=O)[O-])CCN(CC(=O)[O-])CC2)cc1C(C)C.[177Lu+3] (mixture of isomers)", "tested on": "HT-29 tumour model", "test system": "host not given, pancreas", "conditions": "24 h, tumour-bearing", "endpoint": "tracer uptake", "result": "0.5 %ID/g"}
{"SMILES": "C=CC(=O)Nc1cccc(Cn2ncc3cnc(Nc4cnn(CCOC)c4)nc32)c1", "tested on": "TYRO3 human", "assay": "binding, KINOMEscan", "conditions": "100 nM", "scale": "lower = stronger binding", "endpoint": "percent of control", "result": "83%"}
{"SMILES": "Cc1nn(-c2cccc(N)c2)c(=O)c2cnc(Nc3ccc(N4CCNCC4)cc3)nc12", "tested on": "Serine/threonine-protein kinase MRCK beta (CDC42BPB, Homo sapiens, UniProt Q9Y5S2)", "assay": "SelectScreen kinase", "endpoint": "IC50", "result": "> 10000 nM"}
{"SMILES": "COC1CN([C@H]2CC[C@H]([C@@]3(C)Oc4c(Cl)cc(C(=O)NCc5c(SC)cc(C)[nH]c5=O)c(C)c4O3)CC2)C1", "assay": "RNA-seq, refers to: DTNA mouse homolog", "test system": "mouse, HT-1376 xenograft, whole blood", "conditions": "dose not given", "scale": "baseline: vehicle", "endpoint": "log2 fold change", "result": 0.219}
{"SMILES": "CN1CCCNC(=O)c2cccc(c2)C(=O)NCCCN(C)CCCNc2cccc3c2C(=O)c2cccc(c2C3=O)NCCC1", "tested on": "mouse bone marrow cells", "assay": "CCK-8", "conditions": "1.5 µM, 48 h", "scale": "baseline: untreated", "endpoint": "viability", "result": "78.3%"}
{"SMILES": "O=C1NC2(CC2)COc2ncc(F)cc2[C@H]2COCCN2c2ccn3ncc1c3n2", "tested on": "CHL", "assay": "chromosomal aberration test", "conditions": "5 µg/mL, 24 h, without S9", "endpoint": "polyploid cells", "result": "0.3%"}
{"SMILES": "O=C1C2CC3CC1CC(C(=O)N1CCN(c4ccc([N+](=O)[O-])c5ncccc45)CC1)(C3)C2", "tested on": "Salmonella typhimurium", "assay": "Ames test", "test system": "TA97a", "conditions": "0.02 µg/well, without S9 activation", "endpoint": "revertant colony count", "result": "18 colonies/well"}
{"SMILES": "N#C[C@@H]1CC(F)(F)CN1C(=O)CNC(=O)c1ccnc2c(NC(=O)[C@@H](N)CCCCNC(=O)CCOCCOCCOCCOCCOCCOCCNC(=O)CN3CCN(CC(=O)[O-])CCN(CC(=O)[O-])CCN(CC(=O)[O-])CC3)cccc12.[177Lu+3]", "tested on": "U-87 MG tumour model", "test system": "host not given, stomach", "conditions": "1 h, tumour-bearing", "endpoint": "tracer uptake", "result": "0.4 %ID/g"}
{"SMILES": "CCCC[C@H](NC(C)=O)C(=O)N[C@@H](CO)C(=O)N[C@H](C(=O)N1CCC[C@H]1C(=O)N[C@]1(C)CCCCCCC=CCCC[C@@](C)(C(=O)N[C@@H](Cc2ccccc2)C(=O)N[C@@H](CCCCN)C(=O)N[C@@H](CCCNC(=N)N)C(=O)N[C@@H](CC(C)C)C(=O)N[C@@H](CCC(N)=O)C(N)=O)NC(=O)[C@H](CCCNC(=N)N)NC(=O)[C@H](CCCC)NC(=O)[C@H](CC(C)C)NC(=O)[C@H](CCCNC(=N)N)NC(=O)[C@H](CCCNC(=N)N)NC(=O)[C@H](CCCNC(=N)N)NC1=O)[C@@H](C)O", "tested on": "proteinase K", "assay": "LC-MS", "conditions": "25 µM, 492.1 min, pH 7.4", "endpoint": "remaining peptide", "result": "42.6% and 43.2%"}
{"SMILES": "COc1cccc(OC)c1-c1cc(C(=O)NC2(C(=O)O)C3CC4CC(C3)CC2C4)nn1-c1ccc(C(=O)N(C)CCOCCN(C)C(=O)[C@H](CCCCNC(=O)[C@H](CC(C)C)NC(=O)C2OC2C(=O)O)NC(=O)CN2CCN(CC(=O)[O-])CCN(CC(=O)[O-])CCN(CC(=O)[O-])CC2)cc1C(C)C.[177Lu+3] (mixture of isomers)", "tested on": "HT-29 tumour model", "test system": "host not given, pancreas", "conditions": "72 h, tumour-bearing", "endpoint": "tracer uptake", "result": "0.13 %ID/g"}
{"SMILES": "CNS(=O)(=O)Nc1nccc(Cc2c(C)c3ccc(Oc4ncccc4F)cc3oc2=O)c1F", "tested on": "TYK-nu", "assay": "cell viability, CellTiter-Glo", "conditions": "7 days", "endpoint": "IC50", "result": "4.92 nM"}
{"SMILES": "CN(C)CCCCCN(C)Cc1cc2ccccc2o1", "tested on": "Trypanosoma cruzi", "assay": "reporter mRNA translation, inhibitor, refers to: Renilla luciferase mRNA", "test system": "cell-free extract", "conditions": "concentration not given, test 1", "scale": "baseline: positive over negative control", "endpoint": "translation activity", "result": "86.7%"}
{"SMILES": "N#C[C@@H]1CC(F)(F)CN1C(=O)CNC(=O)c1ccnc2c(NC(=O)CCOCCOCCOCCOCCOCCOCCNC(=O)[C@H](CCCCNC(=O)CN3CCN(CC(=O)[O-])CCN(CC(=O)[O-])CCN(CC(=O)[O-])CC3)NC(=O)CCCc3ccc(I)cc3)cccc12.[177Lu+3]", "tested on": "U-87 MG tumour model", "test system": "host not given, blood", "conditions": "24 h, tumour-bearing", "endpoint": "tracer uptake", "result": "0.15 %ID/g"}
{"SMILES": "CNC(=O)C1CCCN(C(=O)C2CC3CCC2N3C(=O)[C@@H]2C[C@@H](O)CN2C(=O)NCc2cccc(Cl)c2F)C1 (mixture of isomers)", "tested on": "Cytochrome P450 2C19 (CYP2C19, Homo sapiens, UniProt P33261)", "assay": "enzyme activity, inhibitor, time-dependent inhibition", "conditions": "50 µM, preincubated with NADPH", "scale": "baseline: negative control", "endpoint": "remaining activity", "result": "102%"}
{"note": "For quick reference, copied from above:"}
{"SMILES": "O=C1NC2(CC2)COc2ncc(F)cc2[C@H]2COCCN2c2ccn3ncc1c3n2", "tested on": "CHL", "assay": "chromosomal aberration test", "conditions": "5 µg/mL, 24 h, without S9", "endpoint": "polyploid cells", "result": "0.3%"}
{"SMILES": "CN(C)CCCCCN(C)Cc1cc2ccccc2o1", "tested on": "Trypanosoma cruzi", "assay": "reporter mRNA translation, inhibitor, refers to: Renilla luciferase mRNA", "test system": "cell-free extract", "conditions": "concentration not given, test 1", "scale": "baseline: positive over negative control", "endpoint": "translation activity", "result": "86.7%"}
{"SMILES": "Nc1ncc(-c2cc(-c3cnn(CC(F)(F)F)c3)ncc2F)nc1C(=O)NC1CNCC(F)C1 (stereo not drawn)", "tested on": "ZAK", "assay": "KINOMEscan", "conditions": "1 µM", "scale": "baseline: DMSO control", "endpoint": "remaining binding", "result": "82%"}
